Measured values of several laboratories.
Compare with care: the assays were run in different laboratories. Several values in a cell are separate wells, animals, samples, runs or records. ± gives the spread as reported.

`O=C(Nc1ccc(C(F)(F)F)cc1Cl)c1cc(Cl)ccc1O`: cell growth “decreased” (C4-2B MDVR cells; total cell number; 0.5 µM, 5 days).
The growth percent of `COc1cc(CNC(=O)C[C@H](C)CCC=C(C)C)ccc1OCc1cn(-c2ccc(Br)cc2)nn1` is reported as 51.2% (SF-539 CNS cancer cells; SRB; 10 µM, 48 h).
For `CC(=O)Oc1ccccc1C(=O)[O][Pt]([NH2])([NH2])([Cl])([Cl])[O]C(=O)C(Cl)Cl`, the resistance factor was 2.7 (C13 and 2008; cytotoxicity, MTT; baseline: IC50 C13 over IC50 2008).
`CC(=O)N[C@H](C(=O)N[C@H](C(=O)N[C@@H](CCCNC(=N)N)C(=O)N1Cc2ccccc2C[C@H]1C(=O)N[C@@H](Cc1ccccc1)C(N)=O)C1CCCCC1)C(C)C` has a cytokine level of 283 ± 302 pg/mL (MBP-specific BC-3 T cells; Bio-Plex multiplex, item: IP-10; 200 µg/mL, 24 h, added: MBP87-99 antigen).
`C=C(C)[C@@H]1CC[C@]2(C(=O)OCO/N=[N+](\[O-])N3CCCC3)CC[C@]3(C)[C@H](CC[C@@H]4[C@@]5(C)CC[C@H](OC(C)=O)C(C)(C)[C@@H]5CC[C@]43C)[C@@H]12` — result for “late apoptotic cells”: 4.47% (B16-F10; Annexin V/PI flow cytometry; 0.50 µM, 36 h).
With `COc1cc(CNC(=O)C[C@H](C)CCC=C(C)C)ccc1OCc1cn(-c2ccc([N+](=O)[O-])cc2)nn1` the growth percent was 73.1% (RPMI-8226 leukaemia cells; SRB; 10 µM, 48 h).
For `CCNS(=O)(=O)c1ccc(COc2ccc3nc4ccc(=O)cc-4oc3c2)cc1`, cell migration read “inhibited” (BT-549; 3D collagen I gel; 1 µM, 48 h).
For `COc1cc(CNC(=O)C[C@H](C)CCC=C(C)C)ccc1OCc1cn(-c2ccccc2F)nn1`, the growth percent was 78.5% (SK-MEL-2 melanoma cells; SRB; 10 µM, 48 h).
For `FC(F)(F)c1ccnc(-c2cc(C(F)(F)F)ccn2)c1.FC(F)(F)c1ccnc(-c2cc(C(F)(F)F)ccn2)c1.[Cl-].[Cl-].[Ru+2].c1csc(-c2ccc(-c3ccc(-c4ccc(-c5nc6c7cccnc7c7ncccc7c6[nH]5)s4)s3)s2)c1`, the EC50 was 100 µM (SK-MEL-28; cell growth or viability, resazurin; dark).
Under “polymeric to soluble tubulin ratio”, `COc1cc(C(=O)c2[nH]c(N)nc2-c2cccs2)cc(OC)c1OC` is recorded as 1.6 ± 0.1 (HeLa cells; western blot; 120 nM, 24 h; baseline: polymeric over soluble tubulin).
`CC(=O)OC[C@H]1O[C@@H](Sc2sc(C(=O)c3ccc(C)cc3)c(N)c2-c2nc3ccccc3s2)[C@H](OC(C)=O)[C@@H](OC(C)=O)[C@H]1OC(C)=O` gave a growth of 91.3% (SF-539; SRB; 10 µM, 48 h; baseline: untreated).
Under “aggregation and ATP secretion”, `Cn1cnnc1Sc1c2c(c(C#N)c3nc4ccccc4n13)CCCC2` is recorded as “no effect” (Ero1α/β-null mouse platelets; 5 µM, added: 0.015 U/mL thrombin).
`CC(=O)OC[C@H]1O[C@@H](Sc2sc(C(=O)c3ccc(Br)cc3)c(N)c2-c2nc3ccccc3s2)[C@H](OC(C)=O)[C@@H](OC(C)=O)[C@@H]1OC(C)=O` has a growth of 103% (BT-549; SRB; 10 µM, 48 h; baseline: untreated).
For `CC(=O)Oc1ccccc1C(=O)[O][Pt]([NH2])([NH2])([Cl])([Cl])[O]C(=O)CCCc1ccccc1`, the resistance factor was 1.5 (C13 and 2008; cytotoxicity, MTT; baseline: IC50 C13 over IC50 2008).
For `CCCCCCCCN(CCC(=O)Nc1ccccc1)C(=O)c1ccccn1`, the optimal concentration was 2 µM (Lmna G609G/G609G mouse fibroblasts; cell proliferation, MTT; 72 h).
The growth percent of `COc1cc(CNC(=O)C[C@H](C)CCC=C(C)C)ccc1O` is reported as 84.4% (RPMI-8226 leukaemia cells; SRB; 10 µM, 48 h).
With `O=C1C(Cl)=C(NCCN2CCOCC2)C(=O)c2ncccc21` the effective concentration was < 5 µM (HEK-293T; H4K20me1 level, inhibitor, western blot; 24 h).
For `COc1cc(CNC(=O)C[C@H](C)CCC=C(C)C)ccc1OCc1cn(-c2cccc(Cl)c2)nn1`, the growth percent was 56.3% (RPMI-8226 leukaemia cells; SRB; 10 µM, 48 h).
`CN1CCC2(CC1)C/C(=N\NC(=O)Nc1ccccc1)c1ccccc1O2` has a necrotic cells of 2.74% (MCF7; annexin V-FITC/PI; concentration not given, 24 h).
`CC(=C(c1ccc(O)cc1)c1ccc(Cl)cc1)c1ccc(Cl)cc1` gave a GI50 of 0.6 µM (SF-539; cell growth or viability, SRB).
The necrotic cells of `O=C1OCC2=C1C(c1cccc(Br)c1)C1=C(N2)C(=O)c2ccccc2C1=O` (stereo not shown) is reported as 1.75% (SK-LU-1 cells; annexin V/PI; 0.08 µM, 24 h).
`CCC(=C(c1ccc(Cl)cc1)c1ccc(OCCCN(C)C)cc1)c1ccc(OC)cc1` gave a GI50 of 3.09 µM (IGROV-1; cell growth or viability).
`COC(=O)c1ccccc1-c1c2ccc(=O)cc-2oc2cc(OCCCCC[P+](c3ccc(C)cc3)(c3ccc(C)cc3)c3ccc(C)cc3)ccc12` has a fluorescence ratio of 0.361 ± 0.058 (HeLa cells; confocal microscopy; mitochondria; 100 nM; baseline: MitoTracker Deep Red).
Under “late apoptotic cells”, `O=C1NCC(Cc2ccccc2)N(CC2CCCN2CC(CC2CCCCC2)N2CC(Cc3ccc(O)cc3)N(CCc3ccccc3)C(=O)C2=O)C1=O` (stereo not shown) is recorded as 4% (WM 266-4; annexin V flow cytometry; 100 µM, 24 h, added: Z-VAD-FMK 10 µM).
For `O=C1Nc2ccc(Cl)cc2C1=Cc1c(Cl)[nH]c2c1ccc1ccccc12`, the TGI was 11.2 µM (melanoma subpanel of NCI-60; 48 h).
For `CC/C=C\C/C=C\C/C=C\C/C=C\C/C=C\C/C=C\CCC(=O)Nc1ccn(C2OC(CO)C(O)C2(F)F)c(=O)n1` (stereo not shown), the TGI was 29.8 µM (SK-MEL-2; NCI60 screen).
`CN1CCCNC(=O)c2cccc(c2)C(=O)NCCCN(C)CCCNc2cccc3c2C(=O)c2cccc(c2C3=O)NCCC1`: “differentially expressed genes share” 3.5% (SAS; RNA-Seq; 1 and 5 µM, 6 and 24 h, all treatment conditions combined).
With `COc1cc(CNC(=O)C[C@H](C)CCC=C(C)C)ccc1OCc1cn(-c2cccc([N+](=O)[O-])c2)nn1` the growth percent was 95.9% (SK-MEL-2 melanoma cells; SRB; 10 µM, 48 h).
`COc1ccc(OC)c(Nc2nc(NCCCO)c3ccccc3n2)c1` — result for “cells without foci”: 57.6 ± 0.5% (BCR-ABL1+ BRCA1-deficient 32Dcl3; item: GFP-RAD52 foci; 2.5 µM, added: cisplatin).
For `COc1ccc2c(c1)/C(=N\Nc1nnc3n1N=C(c1ccccc1)CS3)C(=O)N2`, the inhibition was 17% (IGROV-1; cell growth or viability, SRB; 10 µM).
For `COc1ccc([C@@H]2CC(=O)c3c(O)cc(O[C@@H]4O[C@H](CO[C@@H]5O[C@@H](C)[C@H](O)[C@@H](O)[C@H]5O)[C@@H](O)[C@H](O)[C@H]4O)cc3O2)cc1O`, the gap closure was 0% (A549; cell migration, scratch; 50 µg/mL, 0 h).
`CCN(CC)CC(=O)Nc1cccc(-n2cc(-c3ccc4ccc(-c5cn(-c6cccc(NC(=O)CN(CC)CC)c6)nn5)cc4c3)nn2)c1` — result for “HRE reporter activity decrease”: 59% (RCC4; luciferase reporter; 5 x IC50, normoxia).
`COc1cc(CNC(=O)C[C@H](C)CCC=C(C)C)ccc1OCc1cn(-c2ccc(Cl)cc2Cl)nn1` gave a growth percent of 54.4% (U-251 CNS cancer cells; SRB; 10 µM, 48 h).
The viability of `O=C1/C(=C/c2ccc(O)c(O)c2)Oc2c1c(O)cc(O)c2-c1ccc(O)c(O)c1` is reported as 78.1% (L02; MTT; 10 µM, 2 h, added: H2O2 100 µM; baseline: untreated).
With `COC(=O)c1ccccc1-c1c2ccc(=O)cc-2oc2cc(OCCCCCCCCCCC[P+](c3ccccc3)(c3ccccc3)c3ccccc3)ccc12` the Pearson coefficient was 0.896 ± 0.006 (HeLa cells; confocal microscopy; added: MitoTracker Deep Red).
For `CN1CCN(C(=O)N(CCCCCCC(=O)NO)c2ccc(-c3ccc4cnn(C)c4c3)cc2)CC1`, protein level read “no effect” (MM1.S; immunoblot, item: DACT1 and DACT2; concentration not given, 24 h).
Under “sub-G1 phase cells”, `CO[C@H]1N(OC)c2ccccc2[C@@]12CN=C(Nc1cc(C(F)(F)F)cc(C(F)(F)F)c1)S2` (relative stereo) is recorded as 48.9 ± 7.21% (HCT-116; PI flow cytometry; 40 µM, 48 h).
`COc1ccc(NC(=O)CCc2nc3cc(Cl)ccc3[nH]c2=O)cc1` has a BCL2 level of 0.45 (unspecified cells; concentration not given, unit not given; baseline: untreated control).
With `N#Cc1cccc(-c2ccc(=O)n(Cc3cccc(-c4ncc(OCC5CCN(CC(=O)N6CCN(c7ccc8c(c7)C(=O)N(C7CCC(=O)NC7=O)C8=O)CC6)CC5)cn4)c3)n2)c1` (stereo not shown) the apoptotic cells was 41.7% (EBC-1; annexin V flow cytometry; 10 nM, 48 h).
For `O=Cc1c(O)ccc2ccccc12`, “log2 fold change” read -6.24 (HUVEC; RNA sequencing, item: DEPP1; 75 µM, 24 h; baseline: DMSO).
`O=C(O)CCC(NP(=O)(O)OCCC[C@@H](NC(=O)CC[C@H](NC(=O)CCCCCNC(=O)c1ccc([18F])cc1)C(=O)O)C(=O)O)C(=O)O` (stereo partly shown) gave an internalization of 90.7% and 91% (CWR22Rv1; concentration not given, 4 h).
The growth percent of `COc1cc(CNC(=O)C[C@H](C)CCC=C(C)C)ccc1OCc1cn(-c2cccc(C(F)(F)F)c2)nn1` is reported as 111% (SK-MEL-2 melanoma cells; SRB; 10 µM, 48 h).
`CCCN(CCC)c1ncnc2c1cnn2-c1ccc(C)c(C)c1`: “glucose-stimulated insulin secretion” “increased” (primary rat pancreatic islets; 30 µM, 48 h; baseline: equimolar EUK-134).
Under “cells in %G2/M phase”, `CN1CCN(c2ccc(C(=O)/C=C/Nc3ccc(S(N)(=O)=O)cc3)cc2)CC1` is recorded as 23.5% (MCF7; PI flow cytometry; IC50 concentration, 24 h).
The inhibition of `CC[C@@]12CCc3[nH]c4ccccc4c3CCN(C[C@H]3O[C@H]31)C2` is reported as 50.5 ± 3.5% (BV-2; NO production; 6 µM, 1 h, 24 h stimulation, added: LPS 800 ng/mL; baseline: LPS control).
`C[N+]1(CC(=O)OC2CCCCCCCCCCC2)CCCCC1` has an ED90 of 15.7 µM (LNCaP expressing AR-V7; cell viability, CellTiter Blue; 96 h).

For quick reference, copied from above:
`COc1cc(CNC(=O)C[C@H](C)CCC=C(C)C)ccc1OCc1cn(-c2ccc(Cl)cc2Cl)nn1` gave a growth percent of 54.4% (U-251 CNS cancer cells; SRB; 10 µM, 48 h).
The viability of `O=C1/C(=C/c2ccc(O)c(O)c2)Oc2c1c(O)cc(O)c2-c1ccc(O)c(O)c1` is reported as 78.1% (L02; MTT; 10 µM, 2 h, added: H2O2 100 µM; baseline: untreated).
With `COC(=O)c1ccccc1-c1c2ccc(=O)cc-2oc2cc(OCCCCCCCCCCC[P+](c3ccccc3)(c3ccccc3)c3ccccc3)ccc12` the Pearson coefficient was 0.896 ± 0.006 (HeLa cells; confocal microscopy; added: MitoTracker Deep Red).
For `CN1CCN(C(=O)N(CCCCCCC(=O)NO)c2ccc(-c3ccc4cnn(C)c4c3)cc2)CC1`, protein level read “no effect” (MM1.S; immunoblot, item: DACT1 and DACT2; concentration not given, 24 h).
Under “sub-G1 phase cells”, `CO[C@H]1N(OC)c2ccccc2[C@@]12CN=C(Nc1cc(C(F)(F)F)cc(C(F)(F)F)c1)S2` (relative stereo) is recorded as 48.9 ± 7.21% (HCT-116; PI flow cytometry; 40 µM, 48 h).
